Experimental data pooled from the literature.
Each numbered part is a random draw from the data of one study; scales do not carry over between parts.

Set 1
Target: PABPC1L2, full length, GST fusion (mouse, UniProt A0ABA7IW68)
Method: RNAcompete
Molecule type: RNA
Sample: in vitro
Tested at: 20 nM
Notes: 7-mer, probes averaged, single round
Reference: mean of 7-mers
Reading: higher = stronger binding
Residues (chain): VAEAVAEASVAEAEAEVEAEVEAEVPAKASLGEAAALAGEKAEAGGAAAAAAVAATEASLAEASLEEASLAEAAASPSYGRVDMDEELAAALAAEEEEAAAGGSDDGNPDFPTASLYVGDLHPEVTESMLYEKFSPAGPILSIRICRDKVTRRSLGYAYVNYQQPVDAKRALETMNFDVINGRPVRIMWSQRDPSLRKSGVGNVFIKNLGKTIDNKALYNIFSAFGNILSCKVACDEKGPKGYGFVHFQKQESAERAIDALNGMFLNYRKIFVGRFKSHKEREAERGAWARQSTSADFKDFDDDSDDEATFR
The 7-mer Z-score of `AGCGGCA` is reported as 0.202.
For `UGAUAAA`, the 7-mer Z-score was 2.05.
The 7-mer Z-score of `ACUCAUU` is reported as -0.141.
For `CCAUUAU`, the 7-mer Z-score was -0.293.
The 7-mer Z-score of `UCGUCCG` is reported as -0.34.
`CCCAGGA` has a 7-mer Z-score of -0.153.
`CUUGCUG` gave a 7-mer Z-score of -0.463.
With `UGCGCUA` the 7-mer Z-score was -0.135.
For `AACUUCG`, the 7-mer Z-score was 0.0515.
For `UUUCACA`, the 7-mer Z-score was -0.291.
With `GAUGCCU` the 7-mer Z-score was -0.211.
`CAUCAGG` has a 7-mer Z-score of 0.178.
`UUUUCAC` gave a 7-mer Z-score of -0.458.
The 7-mer Z-score of `CACGAGU` is reported as -0.211.
With `ACCCACG` the 7-mer Z-score was -0.264.
`UGUCAUG` has a 7-mer Z-score of -0.26.
For `CACUUAA`, the 7-mer Z-score was -0.0283.
The 7-mer Z-score of `UGAGCGG` is reported as 0.0424.
With `AGAAACA` the 7-mer Z-score was 3.32.
`AAGUAGG` gave a 7-mer Z-score of 0.412.
With `CAUAGAU` the 7-mer Z-score was -0.00289.
For `UUCCCGC`, the 7-mer Z-score was -0.4.
`UUGCGUA` gave a 7-mer Z-score of -0.302.
For `CAACGUU`, the 7-mer Z-score was -0.405.
The 7-mer Z-score of `CCUCUCG` is reported as -0.315.

Set 2
Target: Hepatocyte nuclear factor 3-alpha (Foxa1, Mus musculus, UniProt P35582, residues 1-468, full length assumed)
UniProt P35582, sequence (whole entry, looked up): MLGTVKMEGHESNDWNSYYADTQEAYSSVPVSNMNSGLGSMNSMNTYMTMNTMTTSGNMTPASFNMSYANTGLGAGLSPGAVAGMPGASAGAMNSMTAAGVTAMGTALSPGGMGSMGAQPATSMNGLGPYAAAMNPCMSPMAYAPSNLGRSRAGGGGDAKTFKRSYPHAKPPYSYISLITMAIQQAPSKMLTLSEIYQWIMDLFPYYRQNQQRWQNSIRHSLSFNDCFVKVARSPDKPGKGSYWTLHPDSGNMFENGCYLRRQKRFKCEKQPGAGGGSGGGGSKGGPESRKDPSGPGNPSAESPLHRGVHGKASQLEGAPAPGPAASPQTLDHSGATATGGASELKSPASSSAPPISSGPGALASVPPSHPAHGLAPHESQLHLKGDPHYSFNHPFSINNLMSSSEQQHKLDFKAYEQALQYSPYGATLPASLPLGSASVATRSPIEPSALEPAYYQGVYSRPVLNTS
Method: EMSA with sequencing
Molecule type: double-stranded DNA, one strand shown
Sample: in vitro
Tested at: 10 and 20 nM
Notes: whole designed probe, mean of two concentrations, ends assumed
Reference: negative control set to 0
Reading: higher = stronger binding
Shared flanks, not repeated: GTGAGCGGTGCCCATTGATGGGGAAC … TTTCACTGGGATCGTGGGGAC
`CATGTACAAACAAAATATGGGTTGTGTAATTTCAGTAATTCCATGTACAAGTTAAACACTCTGATATTTGCATTGCACAATATTTAAAATGTCGTAAACATGAATGCTAACAATCTTTTTTTTTTTTCCTGAGACGGAGTCTTGCTCTATCGCCCAGGCTGGAGTGCAGCGGCACAATCTCTGCTTACTGCCA` — result for “normalised bound fraction”: 0.373 ratio.
Under “normalised bound fraction”, `TTCTGTGGGCTCATTAGTATCATTTTTAAATGGAGGCTCCGCGGCTTCATTGAGCTGAATTCCTGCCCTGCCTTGCCCTCTTTCCTTTCTTATGTGTACACAGCTCTGACTCACTCATTACACAACCTTTGGAAAGAGAGTATGTGCTTAGAGGCAGAGATATGGGCTTGCCTGTGCACGTCAGTGCAAAAAC` is recorded as 0.186 ratio.
Under “normalised bound fraction”, `ATTCAAATACAGTGAACCCAGACCACATTCCAACAGCATTACCCAAGTGGTGAGGCTGAACTCTTCTGCAGATGCTTGTACACAAGACTTCATGTTTATTTTGTGACGTCACCTTCCTCTTTCCCCATTTCAAGTTGACCTTGTGTCGATTTTAACCTGGTTTTGTCTGTATAAACATGTTGGGATAAAGGAA` is recorded as 0.359 ratio.
`GTAAGGACCTCAATTTATTTTTTTCCCTAAGAGCTAATGAATTTTCCCAGTATCACCCACTGAGCCGTCCTCCCCTCTTTGTGATGCCACGTTAGATTACCTTGTGCTGACTCATATGTTCTGCAACATTCAGCTATTTGTCAATTCTTATGCCAGTACTTCCACTGTTACCATCATCAATTTAAAGATTACT`: “normalised bound fraction” -0.0251 ratio.
`TGCTTAATTCTCCATTTCAAAACATTCCAGGAATGGAAAAATGATTCAGCTGGAAGGCATTCGCCCTGTCAGCACCCTATTATCCTAACACAGTGTTTACTCTGTTACTGGTTTCAGTTATCCCTACACAGTTTGATAATCATTTTTGAAGCCAGCCTGGTGTATAACTTAGCACTGGTTCATAGCATGTTTA`: “normalised bound fraction” 0.305 ratio.
`CCAACGTATCAGTATATTCAGCTCCCCTGTTCTTTGTTCTTCATTTTAAACGTTAACTTCCTTGTTCTTTATATCTCCTTGGCCCTAGTCTCAGTAAACAACCCACCAGTTCTAATCAGTAGTTCACATCTGTTCCCCTGGTCACCTGATCCATCCTGAGTCACCCTTGGTCACCTGCTCTGTCCTGAGTCAC` — result for “normalised bound fraction”: 0.0978 ratio.
`AAAGGCTTCATAATGTTTTTGAGGTGTTTTGTAGGCTAGTTTTTGGGTTTGTTTATTTTAAAAAAAAAACTCTTTAATGTTTTTCAGAAGATAAGTAAACAAGAACAATTATACCTTTTTCTTAATGAACGGAAAGAATCAAGGGTGTCCCTAAGGCTGTGGTGAATATAGGAGCAACTGAGGTGAGGGCCAG`: “normalised bound fraction” 0.492 ratio.
`ATGAAAAAGGATAGGAAGAAAGGGAGGAAGAGGAGGGGGACAGAGAGGAAGTAGGAAGGGAGAGCGATAAAGGAAGGAAAGAAGATAAATTCTGTAATCTGCCCCACCCAGACTGGCATAGCACAACCTGGAATGGACTATTTAAGTCCCAAACATGATGTTAAGAGAATAATTCAGATTTCTAGGAATGCAC` — result for “normalised bound fraction”: -0.067 ratio.

Set 3
Target: RNA binding protein fox-1 homolog 2, RRM domain, GST-SBP tag (RBFOX2, Homo sapiens, UniProt O43251-10, residues 100-194)
Method: RNA Bind-n-Seq
Molecule type: RNA
Sample: in vitro
Tested at: 365 nM
Notes: natural RNA segment, single round, ends assumed
Reference: no-protein control
Reading: higher = stronger binding
Shared flanks, not repeated: GGGAGUUCUACAGUCCGACGAUC … UGGAAUUCUCGGGUGCCAA
Residues (chain): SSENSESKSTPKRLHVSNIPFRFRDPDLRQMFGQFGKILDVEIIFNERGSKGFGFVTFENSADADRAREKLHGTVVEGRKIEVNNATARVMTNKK
`AAAGAAUAUUCCAUUUUCCUUUCCUUGUGGUUGAAAACCACAGUCAGUGGAGAGAUGUUUGGAAACCACAGUCAGUGGAGCCUGGGUGGUACCCAGGCUUUAGCAUUAUU` — result for “RBNS enrichment (R)”: 0.417.
For `GGGGGACACUAGAAUGAAAACCAGUGUUAGGGUAAAGACAAAACAGACUAUGUACAUAAUCUGUAUAUGGGAAAAGAAAGAGCGAAAUUACCUUACUUAAGGAUAAUAGG`, “RBNS enrichment (R)” read 0.994.
Under “RBNS enrichment (R)”, `UUUUCCCUAUCCACAGGGGUGUUUGUGUGUGUGCGCGUGUGCGUUUCAAUAAAGUUUGUACACUUUCUUAACAGUGUCUGAUUUGCCGCCCUGCCUGCCCUCCCCAGGGC` is recorded as 0.626.
`CAUAGAACUUAUAAAGGUCCCAGGAUCACUUUUAAGGGAUUUUUAUUAGUUUAAAGGUAAAUAAAGUCAGCUGAAUCUACAUGUCUCUUGUUUUAUUUCUCUCUAAACUU` — result for “RBNS enrichment (R)”: 0.423.
Under “RBNS enrichment (R)”, `AGCGGGCUAGGGCCCAGGGCAGCUUGCCCGUGCUGCUGUGCAGUUCUUGCCUCCCUCACGGGGCGUCACCCCCAGCCCAGCUCCGUUGUACAUAAAUGCCUUGUGGCAGA` is recorded as 0.571.
`GAAGCAUGGGAUGAAAUAGAGGGAAGAAGAGUUUUUAUUUUCUGGCCUUUAAAAAGUGCCUAGUAGGUCAUUUGAGACCCAGAGAAAUGCACAGAGCUUGAGCAAAGGCA`: “RBNS enrichment (R)” 3.3.
For `UCUUGUAAAAUUUAAAUAGCUACCAUUGGCAAUCUGCUUUUUUUCUAAAAUCUGAUUUGCAGCCAGGAAAGAAUUUUCUCACCCAAGGAACAUUUGAUCUAGCAGCAGGG`, “RBNS enrichment (R)” read 0.493.
`GGGUGUUCACCAUGAUAACCUAGUGCCUCCAUAGAGGGGUUUGGAAAAAUUCCAGUCCGAUUUCUUUGUGUGUCAGCUGACUUCCUUAGCUGAUUGUUCCCACUUGCACC` — result for “RBNS enrichment (R)”: 0.276.
`GAAGCAAUGUGGGGCGCUGCGAGCCCCUCCCAGUCCUCUAGAGACUGUCUCCUUUCUGCCUCUGGUUCUCUUUGUUGUUGUUACGUUUCAUUCCAGUUUUUGUUUUUAAU`: “RBNS enrichment (R)” 2.
`AAAAUAAAGCUAAUUUUAGGAAGAUAAACCCUAUGUGGGCUUGCUUGUACAUCUGACUGUGGCUGCUCAGCUCUGUUUUGAGAAGGAAAGGGGCCAUCCUUUCUGUGAGC`: “RBNS enrichment (R)” 0.376.
`AGACAAGACCGGAUCUUGUCAUCUUACCUUUUGCUUUACAAAAAAGGCCUGUUGAAGUCAAUGCUGUCUUGCCCCUUGCUGUUUCAGCAGGUUAGACUUUGGUCUUCACU` — result for “RBNS enrichment (R)”: 0.501.
For `AUCGGGUGCGGAUUGGUGCUAAUUUAAACAAAAGGGCCUCUGGGGUCUUUUGUUCAAUAUUUUACAAUUUAGACUUCUGUCCAACACUAAUUUAUUUUGUCUUGAGUUGU`, “RBNS enrichment (R)” read 0.799.

Set 4
Target: Histone acetyltransferase KAT6A, winged helix 2, GST fusion (KAT6A, Homo sapiens, UniProt Q92794, residues 85-181)
Method: protein binding microarray
Molecule type: double-stranded DNA, one strand shown
Sample: in vitro
Tested at: not given
Notes: 8-mer, flanks averaged, mean of 2 arrays, mostly near background
Reference: not given
Reading: higher = stronger binding
Target sequence (chain): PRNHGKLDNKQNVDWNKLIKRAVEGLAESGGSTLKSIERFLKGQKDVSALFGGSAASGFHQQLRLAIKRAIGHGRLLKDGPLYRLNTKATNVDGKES
`CACCGCCA` gave an E-score of 0.173.
`GTCACAAC` has an E-score of 0.0636.
`GTCCAGTA` has an E-score of -0.206.
`AGTCAGTC` gave an E-score of -0.152.
With `CTAGAAAG` the E-score was -0.114.
For `CCGTTTAG`, the E-score was 0.0747.
`AGGGAAGA` has an E-score of 0.0148.
`CGAATCCA` gave an E-score of -0.016.
The E-score of `CCTAATTC` is reported as 0.0166.
`CGAGCTGA` gave an E-score of 0.0877.
For `ATCATGCG`, the E-score was 0.0928.
`CCAGCGAA` gave an E-score of 0.0734.
`ATCCTTAG` has an E-score of -0.141.
For `CAGCGCTG`, the E-score was 0.0114.
With `AAGGAAGG` the E-score was -0.123.
The E-score of `AGAGGTCA` is reported as -0.109.

Set 5
Target: Sal-like protein 4, full length isoform B (SALL4, Homo sapiens, UniProt Q9UJQ4-2, residues 1-616)
Method: universal PBM
Molecule type: double-stranded DNA, one strand shown
Sample: in vitro
Tested at: not given
Notes: 8-mer, flanks averaged, mean of replicates
Reading: higher = stronger binding
`AACAATAA` gave an E-score of 0.403.
For `AGCTAACA`, the E-score was -0.0056.
The E-score of `GACCCTAA` is reported as -0.153.
The E-score of `GTTCGTGA` is reported as -0.14.
`ATTCATTA` gave an E-score of 0.361.
The E-score of `GCGAACAA` is reported as 0.162.
The E-score of `CATAACAC` is reported as 0.33.
With `GACGCAAC` the E-score was -0.175.
With `AAACTTTA` the E-score was 0.23.
For `GATCGGAA`, the E-score was 0.0259.
`CGATGGCC` gave an E-score of -0.0219.
With `TAATCCCA` the E-score was 0.0616.
With `AAACATTC` the E-score was 0.0997.
`CAGGGCGA` has an E-score of -0.284.
`CTGATCCC` has an E-score of -0.156.
With `AACATTCA` the E-score was 0.159.
`ACTGGGAT` gave an E-score of 0.0515.
The E-score of `AGCGCTTG` is reported as -0.168.
The E-score of `CGTGGAGC` is reported as -0.18.
`ACATGGGT` has an E-score of 0.0818.
`ACAGGGTG` has an E-score of -0.111.
The E-score of `GATATACC` is reported as 0.201.
With `CTCGGGGA` the E-score was -0.263.

A few entries again (set 4):
For `ATCATGCG`, the E-score was 0.0928.
`CCAGCGAA` gave an E-score of 0.0734.
`ATCCTTAG` has an E-score of -0.141.
For `CAGCGCTG`, the E-score was 0.0114.
With `AAGGAAGG` the E-score was -0.123.
